Measured values from different studies.
Parts stem from different laboratories: compare values within a part only.

Block 1 — method: aptamer microarray, sandwich; molecule type: DNA with 2'F-ANA; sample: in vitro; tested at: 200 nM; together with: Cy3 exosite-II aptamer, 400 nM; reading: higher = stronger binding; quantity: mean fluorescence intensity; strand: GGTTGGTGTGGTTGG
Target: Prothrombin, mature alpha-thrombin (F2, Homo sapiens, UniProt P00734)
Setting: whole 15-mer aptamer, many near background
2'F-ANA at 1 3 5 6 7 8 10 11 12 13 15: 52.5 a.u.
2'F-ANA at 2 8 9 13: 366 a.u.
2'F-ANA at 2 5 6 7 9 10 11 12 13 15: 48.7 a.u.
2'F-ANA at 1 2 5 6 7 8 11 12 14: 53.6 a.u.
2'F-ANA at 1 2 3 4 5 6: 57 a.u.
2'F-ANA at 1 2 3 6 8 13 14 15: 72.7 a.u.
2'F-ANA at 4 5 6 8 9 12 14 15: 48.8 a.u.
2'F-ANA at 1 2 5 8 13: 48 a.u.
2'F-ANA at 2 3 4 5 7 8 9 11 12 14: 50.9 a.u.
2'F-ANA at 1 2 3 4 6 8 10 11 13 14 15: 50.4 a.u.
2'F-ANA at 1 2 5 6 7 8 9 13 15: 51.6 a.u.
2'F-ANA at 2 5 6 7 8 10 11 12 13 15: 49.9 a.u.
2'F-ANA at 1 2 3 4 7 8 9 10 15: 58.2 a.u.
2'F-ANA at 3 4 5 9 12 14: 57.6 a.u.
2'F-ANA at 1 3 4 6 7 9 10 13 14: 63.1 a.u.
2'F-ANA at 3 5 7 8 10 11 13: 57.8 a.u.
2'F-ANA at 4 5 7 8 9 12 14: 51.6 a.u.
2'F-ANA at 1 2 3 4 7 8 9 10 12 14: 55.9 a.u.
2'F-ANA at 2 6 7 10 13 14 15: 84.3 a.u.
2'F-ANA at 1 8 10 11 12 13: 66.9 a.u.
2'F-ANA at 3 4 5 9 10 11: 60.4 a.u.
2'F-ANA at 3 5 8 9 10 11 12 13 15: 61.5 a.u.
2'F-ANA at 1 4 5 6 8 12 14: 45.6 a.u.
2'F-ANA at 2 6 7 8 10 12 13 14 15: 120 a.u.

Block 2 — method: protein binding microarray; molecule type: double-stranded DNA, one strand shown; sample: in vitro; tested at: not given; reference: not given; reading: higher = stronger binding; quantity: E-score
Target: Histone acetyltransferase KAT6A, winged helix 1, GST fusion (KAT6A, Homo sapiens, UniProt Q92794, residues 1-85)
Setting: 8-mer, flanks averaged, mean of 2 arrays, mostly near background
Residues (chain): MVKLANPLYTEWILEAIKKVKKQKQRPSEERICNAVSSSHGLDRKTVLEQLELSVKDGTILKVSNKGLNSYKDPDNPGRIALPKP
CTTCGGCA: 0.161
GTTACTCA: -0.0182
CCAGATCA: -0.109
ACACATAC: -0.258
TCCCGCCA: 0.205
AAGCGCTA: 0.326
GAGAGGCA: -0.179
GGCGCGAC: 0.266
CCAGTCGA: -0.205
CGAACTGC: 0.0265
CACAGCTG: -0.241
GGTTCCAA: 0.032
CAGTCCGA: 0.00286
CAAGAAAC: -0.0437
CACGAGGC: -0.0891
AGTTTGCG: 0.125
CCGCCAGG: 0.121
GCGGGCCC: 0.384
GTCTTACA: -0.0643
ATGCCAGG: -0.164

Block 3 — method: protein-binding microarray; molecule type: double-stranded DNA, one strand shown; sample: in vitro; tested at: not given; reading: higher = stronger binding; quantity: E-score
Target: Transcription factor Sp1 (SP1, Homo sapiens, UniProt P08047, residues 1-785, full length assumed)
Sequence of UniProt P08047 (whole entry, looked up): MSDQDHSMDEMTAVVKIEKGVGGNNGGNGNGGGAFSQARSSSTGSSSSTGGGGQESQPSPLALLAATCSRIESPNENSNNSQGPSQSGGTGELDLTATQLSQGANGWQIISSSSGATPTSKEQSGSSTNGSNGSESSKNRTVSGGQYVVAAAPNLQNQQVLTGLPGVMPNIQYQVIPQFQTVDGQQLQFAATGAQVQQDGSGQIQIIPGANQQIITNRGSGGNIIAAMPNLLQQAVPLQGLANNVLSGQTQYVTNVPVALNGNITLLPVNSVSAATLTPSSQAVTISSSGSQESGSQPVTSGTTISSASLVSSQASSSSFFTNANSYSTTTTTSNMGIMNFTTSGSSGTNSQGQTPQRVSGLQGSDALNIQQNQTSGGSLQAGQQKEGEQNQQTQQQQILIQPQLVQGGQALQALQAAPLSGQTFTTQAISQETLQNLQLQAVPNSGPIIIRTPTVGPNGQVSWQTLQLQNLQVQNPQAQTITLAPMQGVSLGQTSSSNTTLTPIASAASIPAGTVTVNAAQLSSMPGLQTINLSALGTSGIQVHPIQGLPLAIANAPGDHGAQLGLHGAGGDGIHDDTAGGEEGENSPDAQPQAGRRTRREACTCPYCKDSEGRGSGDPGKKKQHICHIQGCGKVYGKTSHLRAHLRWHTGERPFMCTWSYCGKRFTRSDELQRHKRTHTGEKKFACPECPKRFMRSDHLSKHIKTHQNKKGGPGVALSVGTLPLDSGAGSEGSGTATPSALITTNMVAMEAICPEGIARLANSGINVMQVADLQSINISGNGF
Setting: k-mer, scored over probes, only values ≥0.25
CCCCTCCG: 0.328
AATTACCC: 0.274
ACCATGTA: 0.251
ATAAGGGG: 0.303
AAACATAC: 0.28
CCATCACC: 0.262
ATATATAG: 0.255
ACATATAT: 0.262
CACATATC: 0.267
CCGCCCCG: 0.482
TGTATACA: 0.346
GGTGGGTA: 0.348
GGTTATAA: 0.281
ACTAGTAT: 0.282
CATGTACG: 0.308
TCCGCCCA: 0.422
CCAACCCC: 0.4
CCCATCCC: 0.372
CACGTGGG: 0.26
AGGGCGTG: 0.38
AACATGTG: 0.27
CCCCTGAC: 0.301
TAGTACTA: 0.257
CATGTATA: 0.295

Block 4 — method: RNA Bind-n-Seq; molecule type: RNA; sample: in vitro; tested at: 365 nM; reference: no-protein control; reading: higher = stronger binding; quantity: RBNS enrichment (R)
Target: RNA binding protein fox-1 homolog 2, RRM domain, GST-SBP tag (RBFOX2, Homo sapiens, UniProt O43251-10, residues 100-194)
Setting: natural RNA segment, single round, ends assumed
Residues (chain): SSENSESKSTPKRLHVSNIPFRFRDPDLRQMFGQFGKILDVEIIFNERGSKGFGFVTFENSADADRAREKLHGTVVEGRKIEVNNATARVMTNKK
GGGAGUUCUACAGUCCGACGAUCAAAGCUGCCCAGAACUCUGGGGAGGCAGAAUAUAUCGAAAAAGUAGUAUAUUCUGUAAAACAGAAUGCAGACGAUGUUAAGAAGGCUCUAGAUGGCGAACUUGAUGAAAAUGGAAUUCUCGGGUGCCAA: 0.361
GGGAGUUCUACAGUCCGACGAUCUUCUUUGAAACUCUACAUUUUCCACACGUCUGCUUCAUUUUCAAAAUGAAGGAUGUUUCCCGUAGGUUUUGUGCAGUCCAGUUGCCCUAAAGGACCAACCUGCCUUACGUUGGAAUUCUCGGGUGCCAA: 0.446
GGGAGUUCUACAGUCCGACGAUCGACUUGCUUCCUGCAUGGUAGGGAGAGACACAAAAGAUGGGAAACUGCUUUUCCACAAGGAAUCUCCGUAGAAUUUUGCGGCGACCAGAUGGUGCAUAGGUCUGGAAGGUUGGAAUUCUCGGGUGCCAA: 2.76
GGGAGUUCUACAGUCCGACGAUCUAUCAAGGCCACUGUGGUAGUGCUUCCCUGAGCAUUCAAUCCCUGGAUCCUGUAGGCCCUGGGAGGGGGUCCCCUUUGUGAAAUAUCAAUGCUGUUUGGGGCCCUCCCCCUGGAAUUCUCGGGUGCCAA: 0.253
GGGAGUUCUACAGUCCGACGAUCAUGUUUUAUUCAAUGUAAAGGAAGACCAAACCAUGUACCUUAUGAAGACCUUUGUUUUAAGACUUCCACACACCAAGGCUACAAUGACUGUUAACCUGGAGGAAGUCUCUUGGAAUUCUCGGGUGCCAA: 0.456
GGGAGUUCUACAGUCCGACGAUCCCGGGUGUGGCACGCACCUGUAGUCCCAGCUACUUGGGAGCCUGAGGCAGGAGAAUCGCUUGAACCUGGGAAGUGGAGGUUGAGUGAGCCGGGACCGUGCCAUUGUACUCUGGAAUUCUCGGGUGCCAA: 1.05
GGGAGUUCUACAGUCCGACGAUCCUCCCAGUAGUAGACCUGUGGUACCUAACGGCGUAUCAGGGCAUGCUGGUAUCACAAGACCCUGAUACACAUUUCAGUGUUCCUAGCCCUUCUUGUCCUCCCUACCCUAAUGGAAUUCUCGGGUGCCAA: 0.52
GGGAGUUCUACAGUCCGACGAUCAGAACUGUGGUGGGAGACCAAUACUCUUAACAGACUGUCCAGUAGGUAUCGGGAAUCCUUGAACAAUUUGGGUUUUCUUCCCCUUUUUUCUCUUUCGUGCUGCAUGCACAUGGAAUUCUCGGGUGCCAA: 5.01

Block 5 — method: universal PBM; molecule type: double-stranded DNA, one strand shown; sample: in vitro; tested at: 600 nM; reading: higher = stronger binding; quantity: E-score
Target: Sal-like protein 4, full length isoform A (SALL4, Homo sapiens, UniProt Q9UJQ4, residues 1-1053)
Sequence of UniProt Q9UJQ4 (whole entry, looked up): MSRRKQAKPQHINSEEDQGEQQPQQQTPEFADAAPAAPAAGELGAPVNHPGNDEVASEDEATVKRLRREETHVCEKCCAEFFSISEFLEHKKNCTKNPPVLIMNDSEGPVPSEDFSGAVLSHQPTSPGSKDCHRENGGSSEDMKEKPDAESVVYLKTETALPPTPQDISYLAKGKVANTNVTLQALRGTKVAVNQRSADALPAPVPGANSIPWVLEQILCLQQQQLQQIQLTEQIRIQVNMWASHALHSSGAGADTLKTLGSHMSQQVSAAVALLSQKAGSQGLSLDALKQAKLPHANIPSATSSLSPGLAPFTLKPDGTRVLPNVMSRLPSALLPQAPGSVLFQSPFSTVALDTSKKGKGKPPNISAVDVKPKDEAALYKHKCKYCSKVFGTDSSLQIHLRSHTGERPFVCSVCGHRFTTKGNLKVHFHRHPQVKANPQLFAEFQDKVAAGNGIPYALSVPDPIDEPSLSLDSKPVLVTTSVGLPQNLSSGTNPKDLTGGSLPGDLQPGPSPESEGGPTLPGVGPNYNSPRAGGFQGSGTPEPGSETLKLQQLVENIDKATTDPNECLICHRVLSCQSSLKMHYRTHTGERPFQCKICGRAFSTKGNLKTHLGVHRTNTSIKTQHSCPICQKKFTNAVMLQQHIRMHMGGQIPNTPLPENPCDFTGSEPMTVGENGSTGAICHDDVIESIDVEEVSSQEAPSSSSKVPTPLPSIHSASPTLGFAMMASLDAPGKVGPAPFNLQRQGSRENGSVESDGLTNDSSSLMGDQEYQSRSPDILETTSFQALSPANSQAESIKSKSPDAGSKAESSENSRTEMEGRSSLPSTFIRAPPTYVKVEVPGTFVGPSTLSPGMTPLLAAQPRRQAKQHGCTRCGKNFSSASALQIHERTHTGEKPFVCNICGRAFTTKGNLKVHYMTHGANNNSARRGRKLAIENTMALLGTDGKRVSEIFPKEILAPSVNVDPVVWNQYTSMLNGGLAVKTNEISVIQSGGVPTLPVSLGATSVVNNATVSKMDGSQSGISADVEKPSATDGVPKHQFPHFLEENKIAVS
Setting: 8-mer, flanks averaged, mean of replicates
CTGGTCTA: -0.0674
AATACCCC: -0.216
GACAGGAC: -0.206
ATACCATG: 0.0636
CCCGTCTA: -0.181
ACGGTCAG: -0.107
GACATGAC: -0.0698
CCGGCAAC: -0.25
AAAACCCT: 0.138
GGGCCTGA: -0.31
GAGACACC: -0.188
CTTGGAAC: -0.0796
CCAGGATC: -0.218
CAGCGACA: -0.168
ACCCAGAT: -0.09
AAAGATTA: 0.3
AGACGCGA: -0.0449
GCTTCCAA: -0.0128
AGAGTCTG: -0.216
AGCGACGC: -0.204
CAGGCGGA: -0.0785
AAGAGAAC: 0.0918
CTTTCACC: 0.0258
ACGCGCGT: -0.0859
CATCCTCG: -0.024

For quick reference, copied from above (block 1):
2'F-ANA at 1 2 5 8 13: 48 a.u.
2'F-ANA at 1 2 5 6 7 8 11 12 14: 53.6 a.u.
2'F-ANA at 2 8 9 13: 366 a.u.
2'F-ANA at 2 5 6 7 8 10 11 12 13 15: 49.9 a.u.
2'F-ANA at 4 5 6 8 9 12 14 15: 48.8 a.u.
2'F-ANA at 1 2 3 4 7 8 9 10 12 14: 55.9 a.u.
2'F-ANA at 1 8 10 11 12 13: 66.9 a.u.
2'F-ANA at 1 3 5 6 7 8 10 11 12 13 15: 52.5 a.u.
2'F-ANA at 2 6 7 10 13 14 15: 84.3 a.u.
2'F-ANA at 4 5 7 8 9 12 14: 51.6 a.u.
2'F-ANA at 2 5 6 7 9 10 11 12 13 15: 48.7 a.u.
2'F-ANA at 2 6 7 8 10 12 13 14 15: 120 a.u.
2'F-ANA at 1 2 5 6 7 8 9 13 15: 51.6 a.u.
